Results collected from several papers.
A part holds a random share of what one study measured.

Block 1
Cell line: HEK-293T/ACE2
Tested at: concentration not given
Time: 16 (unit not given)
Relative to: vehicle
Compound	viability [%]
O=c1ccn([C@@H]2O[C@H](CO)[C@@H](O)[C@H]2O)c(=O)[nH]1	104
CO[C@H]1C(=O)[C@]2(C)[C@@H](OC)C[C@H]3OC[C@@]3(OC(C)=O)[C@H]2[C@H](OC(=O)c2ccccc2)[C@]2(O)C[C@H](OC(=O)[C@H](O)[C@@H](NC(=O)OC(C)(C)C)c3ccccc3)C(C)=C1C2(C)C	57.7
CC(C)C[C@H](CN)CC(=O)O	96.4
N[C@@H](Cc1cc(I)c(Oc2ccc(O)c(I)c2)c(I)c1)C(=O)O	98

Block 2
Target: Replicase polyprotein 1ab, nsp13 helicase (rep, Severe acute respiratory syndrome coronavirus 2, UniProt P0DTD1)
Action: inhibitor
Tested at: 20 µM
SMILES	inhibition
N/C(=N\C(=O)c1nc(Cl)c(N)nc1N)NCc1ccccc1	2.7%
CCCN(C/C=C/I)C1CCc2cccc(O)c2C1 (stereo not drawn)	-2.77%
CCCC(CCC)C(=O)O	-1.45%
CCCCc1ccc2[nH]c(NC(=O)OC)nc2c1	-0.26%
Fc1ccc(-c2nc3n(c2-c2ccncc2)CCS3)cc1	-0.5%
CC(CC(C(N)=O)(c1ccccc1)c1ccccc1)N(C)C (stereo not drawn)	-4.02%
C[C@]1(COc2ccc(N3CCC(Oc4ccc(OC(F)(F)F)cc4)CC3)cc2)Cn2cc([N+](=O)[O-])nc2O1	-24%
Nc1nc2cc(-c3ccc4ncc(C(=O)N5CCOCC5)n4c3)ccc2o1	0.82%
O=C(Oc1cc(S(=O)(=O)c2ccccc2)ccc1[N+](=O)[O-])c1ccc(Cl)cc1	-0.91%

Block 3
Target: Replicase polyprotein 1ab, main protease (rep, Severe acute respiratory syndrome coronavirus 2, UniProt P0DTD1)
Read-out: enzyme activity
Action: inhibitor
Tested at: 20 µM
Setting: hit confirmation
SMILES	inhibition
COC1=C2C[C@@H](C)C[C@H](OC)[C@H](O)[C@@H](C)/C=C(\C)[C@H](OC(N)=O)[C@@H](OC)/C=C/C=C(\C)C(=O)NC(=CC1=O)C2=O	13.8%
CCCCCCCCCCCCCCCCCC[S+](CCC)c1ccccc1C(=O)OCC (stereo not drawn)	74.6%
O=C1C(Cl)=C(Cl)C(=O)C(Cl)=C1Cl	110%
C[C@H]1COC2=C1C(=O)C(=O)c1c2ccc2c1CCCC2(C)C	92.3%

Further values, each from its own experiment
SMILES	assay	test system	conditions	quantity	value
CC[C@H](C)[C@H](NC(=O)[C@H](CC(C)C)NC(=O)[C@H](Cc1c[nH]c2ccccc12)NC(=O)[C@H](CCC(N)=O)NC(=O)[C@@H](NC(=O)[C@H](Cc1ccccc1)NC(=O)[C@H](C)NC(=O)[C@H](CCCCNC(=O)COCCOCCNC(=O)COCCOCCNC(=O)CC[C@H](NC(=O)CCCCCCCCCCCCCCCCCCC(=O)O)C(=O)O)NC(=O)[C@H](CCC(N)=O)NC(=O)[C@H](C)NC(=O)[C@@H](NC(=O)[C@H](CCCCN)NC(=O)[C@H](CC(=O)O)NC(=O)[C@H](CC(C)C)NC(=O)C(C)(C)NC(=O)[C@@H](NC(=O)[C@H](CO)NC(=O)[C@H](Cc1ccc(O)cc1)NC(=O)[C@H](CC(=O)O)NC(=O)[C@H](CO)NC(=O)[C@@H](NC(=O)[C@H](Cc1ccccc1)NC(=O)[C@@H](NC(=O)CNC(=O)[C@H](CCC(=O)O)NC(=O)C(C)(C)NC(=O)[C@@H](N)Cc1ccc(O)cc1)[C@@H](C)O)[C@@H](C)O)[C@@H](C)CC)[C@@H](C)CC)C(C)C)C(=O)N[C@@H](C)C(=O)NCC(=O)NCC(=O)N1CCC[C@H]1C(=O)N[C@@H](CO)C(=O)N[C@@H](CO)C(=O)NCC(=O)N[C@@H](C)C(=O)N1CCC[C@H]1C(=O)N1CCC[C@H]1C(=O)N1CCC[C@H]1C(=O)N[C@@H](CO)C(N)=O	item: treatment-emergent catheter site bruise	healthy subjects	1.5 mg, multiple ascending dose	subjects with adverse event	0%

For quick reference, copied from above (block 1):
Compound	viability [%]
CC(C)C[C@H](CN)CC(=O)O	96.4
CO[C@H]1C(=O)[C@]2(C)[C@@H](OC)C[C@H]3OC[C@@]3(OC(C)=O)[C@H]2[C@H](OC(=O)c2ccccc2)[C@]2(O)C[C@H](OC(=O)[C@H](O)[C@@H](NC(=O)OC(C)(C)C)c3ccccc3)C(C)=C1C2(C)C	57.7
O=c1ccn([C@@H]2O[C@H](CO)[C@@H](O)[C@H]2O)c(=O)[nH]1	104
